Measured values collected from several papers.
Each line is one published result; not all experiments were run side by side.
MTNR1B: Melatonin receptor type 1B (MTNR1B, Homo sapiens, UniProt P49286)
Sequence of UniProt P49286 (whole entry, looked up): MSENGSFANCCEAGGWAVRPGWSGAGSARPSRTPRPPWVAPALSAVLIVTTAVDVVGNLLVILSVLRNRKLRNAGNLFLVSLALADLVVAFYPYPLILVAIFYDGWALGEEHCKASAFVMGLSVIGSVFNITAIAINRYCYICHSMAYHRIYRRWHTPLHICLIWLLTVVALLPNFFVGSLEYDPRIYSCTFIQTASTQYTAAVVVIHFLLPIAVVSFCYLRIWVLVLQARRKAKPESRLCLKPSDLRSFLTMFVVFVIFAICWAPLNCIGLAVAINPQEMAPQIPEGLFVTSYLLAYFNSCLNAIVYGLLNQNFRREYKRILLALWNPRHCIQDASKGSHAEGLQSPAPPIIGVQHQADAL
Sequence of UniProt P27361 (whole entry, looked up): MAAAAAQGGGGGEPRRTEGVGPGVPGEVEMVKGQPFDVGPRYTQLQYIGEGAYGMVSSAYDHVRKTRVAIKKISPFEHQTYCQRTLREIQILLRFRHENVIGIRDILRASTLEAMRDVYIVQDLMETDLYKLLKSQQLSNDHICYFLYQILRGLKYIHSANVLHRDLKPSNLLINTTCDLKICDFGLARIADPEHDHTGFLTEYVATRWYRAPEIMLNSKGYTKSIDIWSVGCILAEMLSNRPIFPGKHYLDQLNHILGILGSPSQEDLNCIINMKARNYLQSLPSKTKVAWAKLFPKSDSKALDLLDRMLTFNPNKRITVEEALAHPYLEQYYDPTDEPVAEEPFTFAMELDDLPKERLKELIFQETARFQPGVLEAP
Sequence of UniProt Q6P3R8 (whole entry, looked up): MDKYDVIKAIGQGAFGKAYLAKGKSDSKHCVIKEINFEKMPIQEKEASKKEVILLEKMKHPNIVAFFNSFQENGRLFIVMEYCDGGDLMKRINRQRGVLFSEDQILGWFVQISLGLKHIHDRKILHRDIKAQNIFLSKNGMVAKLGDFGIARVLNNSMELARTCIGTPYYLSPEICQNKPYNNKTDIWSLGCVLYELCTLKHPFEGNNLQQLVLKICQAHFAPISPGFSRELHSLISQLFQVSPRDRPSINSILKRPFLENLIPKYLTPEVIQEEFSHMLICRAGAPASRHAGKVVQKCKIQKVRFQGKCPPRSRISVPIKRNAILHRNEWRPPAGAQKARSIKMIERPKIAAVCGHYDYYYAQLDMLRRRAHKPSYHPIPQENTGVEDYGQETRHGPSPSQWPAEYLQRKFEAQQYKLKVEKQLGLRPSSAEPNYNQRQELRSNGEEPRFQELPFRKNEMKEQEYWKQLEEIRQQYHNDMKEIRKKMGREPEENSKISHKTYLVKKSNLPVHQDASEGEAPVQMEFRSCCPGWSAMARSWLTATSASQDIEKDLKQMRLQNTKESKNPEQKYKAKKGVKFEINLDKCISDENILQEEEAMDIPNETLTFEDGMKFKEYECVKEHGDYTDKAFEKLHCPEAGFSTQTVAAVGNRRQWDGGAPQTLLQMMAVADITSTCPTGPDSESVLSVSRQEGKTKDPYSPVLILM
Sequence of UniProt P35590 (whole entry, looked up): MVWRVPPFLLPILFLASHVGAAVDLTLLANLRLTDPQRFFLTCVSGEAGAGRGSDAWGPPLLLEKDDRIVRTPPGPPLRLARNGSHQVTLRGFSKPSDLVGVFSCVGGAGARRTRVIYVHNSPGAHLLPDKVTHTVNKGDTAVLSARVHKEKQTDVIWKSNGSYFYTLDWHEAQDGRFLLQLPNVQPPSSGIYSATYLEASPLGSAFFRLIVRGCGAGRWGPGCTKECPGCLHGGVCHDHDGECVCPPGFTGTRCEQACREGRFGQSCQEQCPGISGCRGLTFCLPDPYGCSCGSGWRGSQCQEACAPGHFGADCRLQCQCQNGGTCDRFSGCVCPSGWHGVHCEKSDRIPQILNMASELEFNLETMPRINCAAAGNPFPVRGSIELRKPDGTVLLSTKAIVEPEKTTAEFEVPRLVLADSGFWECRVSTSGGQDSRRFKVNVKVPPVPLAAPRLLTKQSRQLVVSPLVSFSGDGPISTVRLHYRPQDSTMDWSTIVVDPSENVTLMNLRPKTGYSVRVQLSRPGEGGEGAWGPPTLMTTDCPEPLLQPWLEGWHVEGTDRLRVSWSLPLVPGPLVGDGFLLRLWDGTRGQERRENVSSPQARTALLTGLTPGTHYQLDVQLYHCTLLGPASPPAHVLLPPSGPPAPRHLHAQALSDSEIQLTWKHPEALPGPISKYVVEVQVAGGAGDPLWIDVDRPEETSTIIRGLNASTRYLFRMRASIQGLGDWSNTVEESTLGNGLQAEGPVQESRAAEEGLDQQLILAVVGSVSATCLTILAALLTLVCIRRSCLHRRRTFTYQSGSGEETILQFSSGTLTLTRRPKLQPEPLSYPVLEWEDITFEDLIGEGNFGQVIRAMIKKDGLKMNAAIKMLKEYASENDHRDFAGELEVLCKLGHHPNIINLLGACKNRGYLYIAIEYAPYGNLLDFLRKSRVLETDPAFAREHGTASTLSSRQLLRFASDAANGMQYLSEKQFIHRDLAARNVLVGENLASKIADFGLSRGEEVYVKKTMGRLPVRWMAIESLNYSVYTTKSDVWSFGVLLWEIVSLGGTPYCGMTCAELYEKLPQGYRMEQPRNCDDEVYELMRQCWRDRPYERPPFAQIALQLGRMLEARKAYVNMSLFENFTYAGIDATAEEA
Sequence of UniProt Q9SZU7 (whole entry, unmodified, looked up): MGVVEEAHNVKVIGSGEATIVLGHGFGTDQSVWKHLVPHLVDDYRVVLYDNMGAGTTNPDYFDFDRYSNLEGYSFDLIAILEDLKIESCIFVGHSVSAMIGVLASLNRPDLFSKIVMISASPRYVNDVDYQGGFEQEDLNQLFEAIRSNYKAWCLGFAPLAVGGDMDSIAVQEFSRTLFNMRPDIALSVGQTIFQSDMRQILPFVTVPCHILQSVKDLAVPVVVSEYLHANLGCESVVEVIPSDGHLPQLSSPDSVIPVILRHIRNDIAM
Sequence of UniProt P62344 (whole entry, looked up): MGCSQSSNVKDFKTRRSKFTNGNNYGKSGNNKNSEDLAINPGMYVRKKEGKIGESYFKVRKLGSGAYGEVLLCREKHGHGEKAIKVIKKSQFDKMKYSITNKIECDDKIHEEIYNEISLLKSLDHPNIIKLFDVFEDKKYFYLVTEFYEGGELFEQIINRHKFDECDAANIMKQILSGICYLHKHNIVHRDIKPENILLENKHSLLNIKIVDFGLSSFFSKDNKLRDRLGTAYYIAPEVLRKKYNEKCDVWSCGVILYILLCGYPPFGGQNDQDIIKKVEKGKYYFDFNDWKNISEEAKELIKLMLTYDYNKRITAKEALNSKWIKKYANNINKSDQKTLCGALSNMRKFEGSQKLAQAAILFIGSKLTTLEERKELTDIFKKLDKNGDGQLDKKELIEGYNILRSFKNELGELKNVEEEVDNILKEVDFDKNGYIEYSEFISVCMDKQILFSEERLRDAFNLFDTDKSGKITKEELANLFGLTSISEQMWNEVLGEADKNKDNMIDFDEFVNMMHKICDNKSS
Sequence of UniProt P48039 (whole entry, looked up): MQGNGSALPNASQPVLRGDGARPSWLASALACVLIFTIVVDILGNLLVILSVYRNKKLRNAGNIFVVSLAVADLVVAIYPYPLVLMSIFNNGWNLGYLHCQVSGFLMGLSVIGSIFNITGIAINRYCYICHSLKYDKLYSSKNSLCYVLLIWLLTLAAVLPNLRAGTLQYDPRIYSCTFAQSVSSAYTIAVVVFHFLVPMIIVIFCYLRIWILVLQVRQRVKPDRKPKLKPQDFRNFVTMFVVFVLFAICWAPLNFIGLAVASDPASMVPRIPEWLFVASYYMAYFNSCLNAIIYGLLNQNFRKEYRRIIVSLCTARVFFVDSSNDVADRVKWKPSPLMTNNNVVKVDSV
Sequence of UniProt Q13237 (whole entry, looked up): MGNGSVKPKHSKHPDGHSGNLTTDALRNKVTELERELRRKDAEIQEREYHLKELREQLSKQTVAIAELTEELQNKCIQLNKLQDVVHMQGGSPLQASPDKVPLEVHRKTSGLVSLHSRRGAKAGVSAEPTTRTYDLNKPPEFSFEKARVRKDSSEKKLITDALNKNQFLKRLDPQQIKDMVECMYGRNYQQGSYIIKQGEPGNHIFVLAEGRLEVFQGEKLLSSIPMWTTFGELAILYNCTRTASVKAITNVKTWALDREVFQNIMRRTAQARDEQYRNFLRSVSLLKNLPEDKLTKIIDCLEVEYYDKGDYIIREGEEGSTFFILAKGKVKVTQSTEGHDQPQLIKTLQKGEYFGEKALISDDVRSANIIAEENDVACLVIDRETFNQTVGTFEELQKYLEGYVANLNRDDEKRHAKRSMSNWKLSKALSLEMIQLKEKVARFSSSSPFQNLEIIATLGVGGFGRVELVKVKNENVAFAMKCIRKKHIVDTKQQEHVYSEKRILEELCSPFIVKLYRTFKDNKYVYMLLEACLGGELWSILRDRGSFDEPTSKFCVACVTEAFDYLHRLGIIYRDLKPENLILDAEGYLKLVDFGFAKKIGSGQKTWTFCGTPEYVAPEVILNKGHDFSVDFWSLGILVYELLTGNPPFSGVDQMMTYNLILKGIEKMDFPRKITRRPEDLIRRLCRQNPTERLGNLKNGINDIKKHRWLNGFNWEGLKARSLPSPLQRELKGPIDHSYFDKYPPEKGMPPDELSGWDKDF
Sequence of UniProt P09769 (whole entry, looked up): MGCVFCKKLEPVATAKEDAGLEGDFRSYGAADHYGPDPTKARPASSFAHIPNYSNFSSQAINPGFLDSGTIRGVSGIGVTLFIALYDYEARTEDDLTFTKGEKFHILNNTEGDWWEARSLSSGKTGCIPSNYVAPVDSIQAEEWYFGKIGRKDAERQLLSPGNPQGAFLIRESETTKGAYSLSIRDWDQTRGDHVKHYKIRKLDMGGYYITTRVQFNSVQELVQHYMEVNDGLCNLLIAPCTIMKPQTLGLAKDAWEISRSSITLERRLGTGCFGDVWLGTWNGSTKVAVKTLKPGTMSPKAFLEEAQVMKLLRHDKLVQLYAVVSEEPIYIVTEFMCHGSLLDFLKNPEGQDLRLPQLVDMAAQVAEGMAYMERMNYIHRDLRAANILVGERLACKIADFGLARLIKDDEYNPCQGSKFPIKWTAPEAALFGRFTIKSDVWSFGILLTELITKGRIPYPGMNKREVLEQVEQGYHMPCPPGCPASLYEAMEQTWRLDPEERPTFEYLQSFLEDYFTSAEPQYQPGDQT

CC(=O)/C=C/C=C(C)/C=C/C1=C(C)CC(O)CC1(C)C (stereo in doubt)
ΔTm (KAI2 (Arabidopsis thaliana, UniProt Q9SZU7); thermal stability; 100 µM): 3.84 °C

Cc1cc([C@@H](C)Nc2ccccc2C(=O)O)c2nc(N3CCC(F)(F)CC3)c(C#N)c(=O)n2c1
remaining binding (cAMP-dependent protein kinase catalytic subunit alpha (PRKACA, Homo sapiens, UniProt P17612); binding, competition with immobilised ligand; 1 µM): 78%

COc1cc(-c2cncc3c2CN(C)Cc2cc(N4CCNCC4)ccc2-3)cc(OC)c1OC
remaining activity (Tyrosine-protein kinase Fgr (FGR, Homo sapiens, UniProt P09769); enzyme activity, inhibitor; 1 µM): 93%

COc1ccc2cccc(CCNC(C)=O)c2c1
Emax (MTNR1B; GTPγS binding, agonist, radiometric; cell membranes): 94%

CNc1ncc2c(/C=C/C(=O)N3CCC(OC)CC3)nn(Cc3cccc(C(F)(F)F)c3)c2n1
remaining activity (cGMP-dependent protein kinase 2 (PRKG2, Homo sapiens, UniProt Q13237); enzyme activity, inhibitor, radiometric; 1 µM): 101%

COc1cc2c(CCNC(C)=O)c[nH]c2cc1I
Emax (Melatonin receptor type 1A (MTNR1A, Homo sapiens, UniProt P48039); GTPγS binding, agonist, radiometric; cell membranes): 77%

C1=C/COCc2cc(ccc2OCCN2CCCC2)Nc2nccc(n2)-c2cccc(c2)COC/1
remaining binding (Serine/threonine-protein kinase Nek5 (NEK5, Homo sapiens, UniProt Q6P3R8); binding; 0.1 µM): 77%

CC[C@H](C)[C@H](NC(=O)[C@H](CCC(N)=O)NC(=O)[C@@H](NC(=O)[C@H](CCSC)NC(=O)[C@H](CCCCN)NC(=O)[C@H](CO)NC(=O)[C@@H](NC(=O)[C@H](CCSC)NC(=O)[C@H](CC(C)C)NC(=O)[C@H](CC(N)=O)NC(=O)[C@@H](NC(=O)[C@@H](NC(=O)[C@H](CO)NC(=O)[C@H](CC(C)C)NC(=O)[C@H](C)NC(=O)[C@H](CCCNC(=N)N)NC(=O)[C@H](CCC(=O)O)NC(=O)[C@H](Cc1ccc(O)cc1)NC(=O)[C@H](Cc1ccccc1)NC(=O)[C@H](C)NC(=O)[C@H](CC(N)=O)NC(=O)[C@@H](N)CCCCN)[C@@H](C)CC)[C@@H](C)CC)[C@@H](C)O)C(C)C)C(=O)N[C@@H](CC(N)=O)C(=O)N[C@H](C(=O)O)C(C)C
remaining activity (Mitogen-activated protein kinase 3 (MAPK3, Homo sapiens, UniProt P27361); enzyme activity, inhibitor, radiometric; 10 µM, 20 min): 100%

FC(F)(F)Oc1cccc(-c2cnc3ccc(-c4ccncc4)nn23)c1
remaining binding (Ephrin type-A receptor 1 (EPHA1, Homo sapiens, UniProt P21709); cell-free assay, competition with immobilised ligand; 5 µM): 90%

CCCCC(=O)Nc1ccc(-c2ccc3ncn(CCC)c(=O)c3c2)cn1
remaining binding (Serine/threonine-protein kinase WNK1 (WNK1, Homo sapiens, UniProt Q9H4A3); binding, competition with immobilised ligand; 0.5 µM): 100%

C=CC(=O)N1CCC(COCC(=O)N2CCN(c3nc(-c4cnc(N)nc4C(F)F)nc(N4CCOC[C@@H]4C)n3)CC2)CC1
remaining binding (Serine/threonine-protein kinase WNK2 (WNK2, Homo sapiens, UniProt Q9Y3S1); binding, competition with immobilised ligand; 1 µM): 69%

Nc1ncnc2occ(-c3ccc(NC(=O)Nc4cc(C(F)(F)F)ccc4F)cc3)c12
remaining signal (Tyrosine-protein kinase receptor Tie-1 (TIE1, Homo sapiens, UniProt P35590); cell-free assay; 20 µM): 0%

CC1CCCN1c1nccc(-c2cnn3ncccc23)n1 (stereo not drawn)
remaining binding (Calcium-dependent protein kinase 1 (CDPK1, Plasmodium falciparum, UniProt P62344); binding; 1 µM): 100%

COc1cc(CNC(=O)c2cccc(C(F)(F)F)c2)cc(Br)c1OC
inhibition (Replicase polyprotein 1ab, main protease (rep, Porcine epidemic diarrhea virus, UniProt P0C6Y4); enzyme activity, inhibitor, FRET; 10 µM): 0.74%

CCC(=O)NC1Cc2ccccc2C(c2ccccc2)C1 (stereo not drawn)
Emax (MTNR1B; cAMP, agonist, TR-FRET; CHO-K1; 20 min): 48%

For quick reference, copied from above:
CNc1ncc2c(/C=C/C(=O)N3CCC(OC)CC3)nn(Cc3cccc(C(F)(F)F)c3)c2n1
remaining activity (cGMP-dependent protein kinase 2 (PRKG2, Homo sapiens, UniProt Q13237); enzyme activity, inhibitor, radiometric; 1 µM): 101%
